Published values pooled from the literature.
Each line is one published result; not all experiments were run side by side.

SMILES | cell line | test | conditions | how to read | selectivity ratio
CNC(=O)c1cc(Oc2ccc(NC(=O)c3ccc(-c4ccccc4OC(=O)CCC(=O)OC4OC5OC6(C)CCC7C(C)CCC(C4C)C57OO6)cn3)cc2)ccn1 (stereo not drawn) | HepG2 and LO2 | cell viability, MTT | 72 h | relative to: IC50 LO2 over IC50 HepG2 | > 6.1
CC(C)[C@@H]1NC(=O)[C@H](C)OC(=O)[C@@H](C(C)C)NC(=O)[C@@H](C(C)C)OC(=O)[C@H](C(C)C)NC(=O)[C@H](C)OC(=O)[C@@H](C(C)C)NC(=O)[C@@H](C(C)C)OC(=O)[C@H](C(C)C)NC(=O)[C@H](C)OC(=O)[C@@H](C(C)C)NC(=O)[C@H](C)OC1=O | C6 | cell growth, SRB | – | relative to: IC50 in HA over IC50 in C6 | 35
CNC(=O)c1cc(Oc2ccc(NC(=O)c3ccc(-c4cccc(OC(=O)CCC(=O)OC5OC6OC7(C)CCC8C(C)CCC(C5C)C68OO7)c4)cn3)cc2)ccn1 (stereo not drawn) | HepG2 and LO2 | cell viability, MTT | 72 h | relative to: IC50 LO2 over IC50 HepG2 | 6.8
Cc1ccc(C(C)C)cc1.[Cl][Au].[Cl][Ru][Cl].c1ccc(P(CP(c2ccccc2)c2ccccc2)c2ccccc2)cc1 | L929 and HCT-116 | trypan blue exclusion | – | relative to: IC50 L929 over IC50 HCT-116 | 7.8
CCCCCCCCCCCCN[C@H]1C=C[C@]2(O[C@H]([C@@H](CC)C(=O)[C@@H](C)[C@@H](O)[C@H](C)[C@@H]3O[C@@H]([C@@H](CC)C(=O)O)CC[C@@H]3C)[C@@H](C)C[C@H]2C)O[C@@]12CC[C@@](C)([C@H]1CC[C@](O)(CC)[C@H](C)O1)O2 | HMLER CD24low/CD44high | cell viability, CellTiter-Blue | 72 h | relative to: IC50 HMLER CD24high/CD44low over CD24low/CD44high | 4.1
CC[C@H](C)[C@H](NC(=O)CNC(=O)[C@H](C)NC(=O)[C@@H]1CCCN1C(=O)CNC(=O)[C@H](C)NC(=O)[C@H](CCC(=O)O)NC(=O)[C@H](C)NC(=O)[C@H](CC(=O)O)NC(=O)[C@H](C)NC(=O)[C@H](CCC(=O)O)NC(=O)[C@H](C)NC(=O)[C@H](CCC(=O)O)NC(=O)[C@@H]1CCCN1C(=O)[C@H](CCC(=O)O)NC(=O)CNC(C)=O)C(=O)NCC(=O)N[C@@H](C)C(=O)N[C@H](C(=O)N[C@@H](CC(C)C)C(=O)N[C@@H](CCCCN)C(=O)N[C@H](C(=O)N[C@@H](CC(C)C)C(=O)N[C@H](C(=O)N[C@H](C(=O)NCC(=O)N[C@@H](CC(C)C)C(=O)N1CCC[C@H]1C(=O)N[C@@H](C)C(=O)N[C@@H](CC(C)C)C(=O)N[C@H](C(=O)N[C@@H](CO)C(=O)N[C@@H](Cc1c[nH]c2ccccc12)C(=O)N[C@H](C(=O)N[C@@H](CCCCN)C(=O)N[C@@H](CCCNC(=N)N)C(=O)N[C@@H](CCCCN)C(=O)N[C@@H](CCCNC(=N)N)C(=O)N[C@@H](CCC(N)=O)C(=O)N[C@@H](CCC(N)=O)C(N)=O)[C@@H](C)CC)[C@@H](C)CC)[C@@H](C)O)[C@@H](C)O)C(C)C)C(C)C | MCF7 FAP-positive and FAP-negative | cytotoxicity | – | relative to: IC50 FAP-negative over FAP-positive | ~8 fold
CC[C@@H](C(=O)[C@@H](C)[C@@H](O)[C@H](C)[C@@H]1O[C@@H]([C@@H](CC)C(=O)O)CC[C@@H]1C)[C@H]1O[C@]2(C=C[C@H](NCc3ccc(O)cc3)[C@]3(CC[C@@](C)([C@H]4CC[C@](O)(CC)[C@H](C)O4)O3)O2)[C@H](C)C[C@@H]1C | HMLER CD24low/CD44high | cell viability, CellTiter-Blue | 72 h | relative to: IC50 HMLER CD24high/CD44low over CD24low/CD44high | 12.4
C[C@@H](N)[C@H](O)CCCCCCCC(=O)CCCCCCCCCCCCCC[C@@H](O[C@@H]1O[C@H](CO)[C@H](O)[C@H](O)[C@H]1O)[C@H](N)CO | HCC70 | – | – | relative to: IC50 MCF-12A over IC50 HCC70 | 2.4
CNC(=O)c1cc(Oc2ccc(NC(=O)c3ccc(-c4cccc(COC(=O)CCC(=O)OC5OC6OC7(C)CCC8C(C)CCC(C5C)C68OO7)c4)cn3)cc2)ccn1 (stereo not drawn) | HepG2 and LO2 | cell viability, MTT | 72 h | relative to: IC50 LO2 over IC50 HepG2 | > 11.8
Cc1ccc(C(C)C)cc1.[Cl][Ru]([Cl])[P](CP(c1ccccc1)c1ccccc1)(c1ccccc1)c1ccccc1 | L929 and HCT-116 | trypan blue exclusion | – | relative to: IC50 L929 over IC50 HCT-116 | 1.8
CC[C@@H](C(=O)[C@@H](C)[C@@H](O)[C@H](C)[C@@H]1O[C@@H]([C@@H](CC)C(=O)O)CC[C@@H]1C)[C@H]1O[C@]2(C=C[C@H](NCC(C)C)[C@]3(CC[C@@](C)([C@H]4CC[C@](O)(CC)[C@H](C)O4)O3)O2)[C@H](C)C[C@@H]1C | HMLER CD24low/CD44high | cell viability, CellTiter-Blue | 72 h | relative to: IC50 HMLER CD24high/CD44low over CD24low/CD44high | 11
CNC(=O)c1cc(Oc2ccc(NC(=O)c3ccc(-c4ccc(OC(=O)CCC(=O)OC5OC6OC7(C)CCC8C(C)CCC(C5C)C68OO7)cc4)cn3)cc2)ccn1 (stereo not drawn) | HepG2 and LO2 | cell viability, MTT | 72 h | relative to: IC50 LO2 over IC50 HepG2 | 5.5
